# Results collected from several papers.
# Protocols differ between the studies behind these lines. “And” joins repeats or separate records; there may be more than shown. ± gives the spread as reported. Ends that are not written are not given here.
# MIB2: MIB2 1-836 (Homo sapiens, UniProt Q96AX9)
# Sequence of UniProt Q96AX9 (whole entry, looked up): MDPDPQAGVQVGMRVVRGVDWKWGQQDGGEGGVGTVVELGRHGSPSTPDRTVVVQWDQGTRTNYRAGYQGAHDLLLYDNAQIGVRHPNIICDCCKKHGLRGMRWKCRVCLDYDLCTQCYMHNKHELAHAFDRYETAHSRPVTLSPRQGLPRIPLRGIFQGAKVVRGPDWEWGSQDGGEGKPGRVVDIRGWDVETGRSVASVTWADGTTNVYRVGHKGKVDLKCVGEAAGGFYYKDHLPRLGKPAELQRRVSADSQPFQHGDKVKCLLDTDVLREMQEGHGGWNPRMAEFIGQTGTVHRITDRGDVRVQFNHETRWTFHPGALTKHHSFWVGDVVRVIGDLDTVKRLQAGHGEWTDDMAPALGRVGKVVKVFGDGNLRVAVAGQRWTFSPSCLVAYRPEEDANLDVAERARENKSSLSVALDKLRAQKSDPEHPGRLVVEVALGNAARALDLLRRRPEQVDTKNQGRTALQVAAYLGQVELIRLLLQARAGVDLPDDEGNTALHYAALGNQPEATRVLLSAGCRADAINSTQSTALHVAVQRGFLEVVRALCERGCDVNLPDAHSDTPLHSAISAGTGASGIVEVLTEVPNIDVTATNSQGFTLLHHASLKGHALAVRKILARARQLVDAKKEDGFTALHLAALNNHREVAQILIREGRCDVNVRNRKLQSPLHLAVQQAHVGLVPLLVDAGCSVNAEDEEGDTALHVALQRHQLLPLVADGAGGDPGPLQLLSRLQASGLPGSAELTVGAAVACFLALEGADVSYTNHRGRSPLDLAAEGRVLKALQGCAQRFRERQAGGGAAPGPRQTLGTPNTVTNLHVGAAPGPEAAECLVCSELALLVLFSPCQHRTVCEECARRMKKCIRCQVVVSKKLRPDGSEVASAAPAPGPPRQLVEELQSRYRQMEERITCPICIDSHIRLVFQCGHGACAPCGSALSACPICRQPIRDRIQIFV
# B1: protein R6A/R10A (Xanthomonas citri, UniProt A0AAI8ETV0); chain MIQDTARAPARQPTDLLPVIDTLSEVQIGRVGNVSETGMLLLASVPLHDDALYQLRFSLPERVGRATEIDVGVHLLWSEAAHAPGQAWAGFRFLTMSEPHRQRLRAWIAEEHLAG
# B2: muscarinic toxin 3 mature (UniProt P81031); chain LTCVTKNTIFGITTENCPAGQNLCFKRWHYVIPRYTEITRGCAATCPIPENYDSIHCCKTDKCNE
# Sequence of UniProt P08913 (whole entry, looked up): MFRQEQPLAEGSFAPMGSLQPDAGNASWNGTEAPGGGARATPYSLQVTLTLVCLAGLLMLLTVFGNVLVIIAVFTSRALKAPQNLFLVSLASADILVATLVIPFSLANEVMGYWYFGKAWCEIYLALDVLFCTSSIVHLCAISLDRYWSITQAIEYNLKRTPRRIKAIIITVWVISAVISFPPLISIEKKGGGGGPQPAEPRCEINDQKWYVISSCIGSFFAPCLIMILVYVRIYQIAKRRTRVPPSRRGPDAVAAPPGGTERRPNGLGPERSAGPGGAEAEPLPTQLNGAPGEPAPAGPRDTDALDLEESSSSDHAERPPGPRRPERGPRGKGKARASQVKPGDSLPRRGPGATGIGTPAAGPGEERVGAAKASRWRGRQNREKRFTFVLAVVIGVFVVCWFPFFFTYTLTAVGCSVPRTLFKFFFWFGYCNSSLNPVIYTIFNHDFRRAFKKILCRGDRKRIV
# Sequence of UniProt P9WI75 (whole entry, looked up): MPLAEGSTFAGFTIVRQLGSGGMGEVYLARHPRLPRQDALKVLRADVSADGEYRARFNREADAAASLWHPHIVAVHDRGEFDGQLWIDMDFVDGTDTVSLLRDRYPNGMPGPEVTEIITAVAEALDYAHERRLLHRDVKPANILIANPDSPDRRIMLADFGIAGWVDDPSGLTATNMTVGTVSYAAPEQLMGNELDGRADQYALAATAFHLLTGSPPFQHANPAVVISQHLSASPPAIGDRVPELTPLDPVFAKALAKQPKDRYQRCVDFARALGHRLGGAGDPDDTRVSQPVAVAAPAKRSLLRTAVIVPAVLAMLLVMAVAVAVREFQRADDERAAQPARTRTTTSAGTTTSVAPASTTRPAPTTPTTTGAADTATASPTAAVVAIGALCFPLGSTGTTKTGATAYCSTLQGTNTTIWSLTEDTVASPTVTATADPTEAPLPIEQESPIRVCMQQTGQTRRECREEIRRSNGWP
# Sequence of UniProt Q62976 (whole entry, looked up): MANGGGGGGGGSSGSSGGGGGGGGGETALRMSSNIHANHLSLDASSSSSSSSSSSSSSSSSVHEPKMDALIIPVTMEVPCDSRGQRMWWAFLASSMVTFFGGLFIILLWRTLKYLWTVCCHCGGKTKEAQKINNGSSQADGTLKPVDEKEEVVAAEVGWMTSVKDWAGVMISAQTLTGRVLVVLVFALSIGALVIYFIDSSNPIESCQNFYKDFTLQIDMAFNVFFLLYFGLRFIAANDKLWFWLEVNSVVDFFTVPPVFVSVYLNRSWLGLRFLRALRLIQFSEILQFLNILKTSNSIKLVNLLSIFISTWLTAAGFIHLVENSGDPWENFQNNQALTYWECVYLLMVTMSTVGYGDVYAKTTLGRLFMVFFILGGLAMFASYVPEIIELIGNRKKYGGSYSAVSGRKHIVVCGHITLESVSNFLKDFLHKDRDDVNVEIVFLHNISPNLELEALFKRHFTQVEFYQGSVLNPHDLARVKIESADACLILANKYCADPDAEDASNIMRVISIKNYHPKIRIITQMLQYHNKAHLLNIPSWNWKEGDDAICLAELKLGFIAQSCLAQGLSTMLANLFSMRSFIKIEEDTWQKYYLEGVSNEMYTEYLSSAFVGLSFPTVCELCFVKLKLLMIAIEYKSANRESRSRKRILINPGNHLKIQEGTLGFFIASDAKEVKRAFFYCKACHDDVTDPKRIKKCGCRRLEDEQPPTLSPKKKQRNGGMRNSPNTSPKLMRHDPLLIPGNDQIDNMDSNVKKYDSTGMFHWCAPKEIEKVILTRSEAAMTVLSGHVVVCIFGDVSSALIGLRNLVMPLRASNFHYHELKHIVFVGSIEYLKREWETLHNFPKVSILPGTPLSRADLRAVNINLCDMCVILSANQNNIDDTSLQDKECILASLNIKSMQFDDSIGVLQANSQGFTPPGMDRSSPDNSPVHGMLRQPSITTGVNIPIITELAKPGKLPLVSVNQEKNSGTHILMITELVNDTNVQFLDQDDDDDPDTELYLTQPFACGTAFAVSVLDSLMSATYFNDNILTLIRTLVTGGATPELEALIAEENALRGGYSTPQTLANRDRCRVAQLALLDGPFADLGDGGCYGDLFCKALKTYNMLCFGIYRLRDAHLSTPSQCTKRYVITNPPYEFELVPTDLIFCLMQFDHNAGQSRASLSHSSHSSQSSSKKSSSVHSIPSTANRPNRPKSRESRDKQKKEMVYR
Substance,tested on,test,test system,conditions,scale,measurement,result
B1 (protein R6A/R10A),"hemK (Xanthomonas citri, UniProt A0AAI7ZDL3)",ITC,,,,Kd,21200 ± 51500 nM
"THBS1 (Homo sapiens, UniProt P07996)",env gp160 (HIV-1),radioligand binding,,"apparent, Scatchard",,Kd,250 nM
Rv1747 fragment (Mycobacterium tuberculosis),"pknF autophosphorylated 1-299, phosphorylated, sites unknown (Mycobacterium tuberculosis, UniProt P9WI75)",ITC,,20 °C,,Kd,400 nM
SPRRARSV,,AIM,"peptide, CD8+ T cells from PBMC, human donors","HLA-B*08:01 restricted, unit not given",relative to: positive over tested donors,frequency of responding donors,20
"MnTx-1 mature (Pterinochilus murinus, UniProt C0HMD2)","KCNA2 (Homo sapiens, UniProt P16389-1)","K+ current inhibition, inhibitor, patch-clamp",,whole-cell,,IC50,171 nM
QPLRKLCILHRNPGRCYQKIPAFYYNQKKKQCEGFTWSGCGGNSNRFKTIEECRRTCIRK (dendrotoxin I; ends and bridges not checked; cysteine pairing not given here; sequence looked up),"Kcnma1 (Rattus norvegicus, UniProt Q62976)","blocker, planar bilayer single channel",,with: BP,relative to: BP-unoccupied channel,association rate decrease,1.3 fold
BKRF4 fragment (Epstein-Barr virus),H2A/H2B dimer (Homo sapiens),ITC,,"25 °C, NaCl 0.5 M",,molecule per partner,1
"Gag-CFP/YFP, N-terminal myristoyl (HIV-1)",itself,FLIM FRET,HEK293T,"apparent, membrane pixels, in cells",lower = more FRET,donor lifetime,2340 ± 90 ps
ORF45 fragment (Kaposi's sarcoma-associated herpesvirus),H2A/H2B dimer (Homo sapiens),magnetic tweezers,,outer wrap,,rupture force,10 pN
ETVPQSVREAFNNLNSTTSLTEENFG (VP35 residues 190-215 (Zaire ebolavirus); FITC label),MIB2,FP,peptide,,,Kd,5400 ± 900 nM
GVPINTNSSPDDQIG,human CD4 T cells,AIM,peptide,,,responding donors,8%
"ACE2/pIgR VHH6 Fc fusion ACE2 , Fc at C-terminus (Homo sapiens)","spike RBD RBD (SARS-CoV-2, UniProt P0DTC2)",BLI,,,,koff,1.4e-05 s⁻¹
jingzhaotoxin-III (spider),"SCN5A domain II S3-S4 extracellular region, Gal4 activation domain fusion (Homo sapiens)","sodium current, inhibitor, whole-cell patch clamp",HEK293,,,IC50,297 nM
B2 (muscarinic toxin 3 mature),"ADRA2A (Homo sapiens, UniProt P08913)",flow cytometry,HEK293,,,EC50,12.6 nM and 18.3 nM and 18.5 nM
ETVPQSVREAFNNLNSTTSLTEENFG (VP35 190-215 (Zaire ebolavirus); FITC label),MIB2,FP,peptide,,,Kd,5400 ± 900 nM
